Assay results from different studies.
Every numbered part comes from another study and shows a few of its results, in no order.
Sequence of UniProt Q9UQM7 (whole entry, looked up): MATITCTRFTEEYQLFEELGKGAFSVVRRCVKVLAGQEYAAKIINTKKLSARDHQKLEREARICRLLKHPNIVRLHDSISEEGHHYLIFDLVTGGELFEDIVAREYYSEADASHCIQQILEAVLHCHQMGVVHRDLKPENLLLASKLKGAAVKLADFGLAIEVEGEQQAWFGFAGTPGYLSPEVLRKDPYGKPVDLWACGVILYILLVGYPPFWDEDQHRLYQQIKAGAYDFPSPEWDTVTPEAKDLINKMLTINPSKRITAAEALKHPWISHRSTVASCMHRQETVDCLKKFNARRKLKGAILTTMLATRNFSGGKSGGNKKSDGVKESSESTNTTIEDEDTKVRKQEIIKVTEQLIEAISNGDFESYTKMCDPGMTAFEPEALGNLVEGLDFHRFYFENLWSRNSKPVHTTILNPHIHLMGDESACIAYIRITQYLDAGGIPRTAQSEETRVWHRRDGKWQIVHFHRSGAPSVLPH
Sequence of UniProt Q08345 (whole entry, looked up): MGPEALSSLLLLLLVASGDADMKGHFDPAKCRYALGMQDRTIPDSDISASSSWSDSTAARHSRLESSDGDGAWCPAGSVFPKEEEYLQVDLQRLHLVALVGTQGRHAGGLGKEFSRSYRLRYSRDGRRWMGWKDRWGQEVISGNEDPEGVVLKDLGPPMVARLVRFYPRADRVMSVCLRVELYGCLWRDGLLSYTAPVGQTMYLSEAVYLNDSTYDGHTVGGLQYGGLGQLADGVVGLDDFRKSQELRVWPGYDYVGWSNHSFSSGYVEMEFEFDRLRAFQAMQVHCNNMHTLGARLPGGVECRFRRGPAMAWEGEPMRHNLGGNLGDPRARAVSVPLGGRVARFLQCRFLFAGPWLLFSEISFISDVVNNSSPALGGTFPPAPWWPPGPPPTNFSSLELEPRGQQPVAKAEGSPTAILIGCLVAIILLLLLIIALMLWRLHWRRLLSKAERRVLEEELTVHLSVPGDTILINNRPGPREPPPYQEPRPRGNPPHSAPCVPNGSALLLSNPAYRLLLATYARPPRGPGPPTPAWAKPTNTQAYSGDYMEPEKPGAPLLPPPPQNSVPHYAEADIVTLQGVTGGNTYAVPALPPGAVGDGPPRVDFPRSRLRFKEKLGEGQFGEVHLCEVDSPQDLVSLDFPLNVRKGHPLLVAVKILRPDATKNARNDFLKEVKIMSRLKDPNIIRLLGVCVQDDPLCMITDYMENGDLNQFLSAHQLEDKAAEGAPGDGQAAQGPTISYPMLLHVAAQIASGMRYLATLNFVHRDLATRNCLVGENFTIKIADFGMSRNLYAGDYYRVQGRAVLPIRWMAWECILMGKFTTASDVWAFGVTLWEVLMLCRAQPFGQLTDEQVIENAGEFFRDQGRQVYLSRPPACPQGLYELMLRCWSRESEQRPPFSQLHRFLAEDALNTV
Sequence of UniProt Q15349 (whole entry, looked up): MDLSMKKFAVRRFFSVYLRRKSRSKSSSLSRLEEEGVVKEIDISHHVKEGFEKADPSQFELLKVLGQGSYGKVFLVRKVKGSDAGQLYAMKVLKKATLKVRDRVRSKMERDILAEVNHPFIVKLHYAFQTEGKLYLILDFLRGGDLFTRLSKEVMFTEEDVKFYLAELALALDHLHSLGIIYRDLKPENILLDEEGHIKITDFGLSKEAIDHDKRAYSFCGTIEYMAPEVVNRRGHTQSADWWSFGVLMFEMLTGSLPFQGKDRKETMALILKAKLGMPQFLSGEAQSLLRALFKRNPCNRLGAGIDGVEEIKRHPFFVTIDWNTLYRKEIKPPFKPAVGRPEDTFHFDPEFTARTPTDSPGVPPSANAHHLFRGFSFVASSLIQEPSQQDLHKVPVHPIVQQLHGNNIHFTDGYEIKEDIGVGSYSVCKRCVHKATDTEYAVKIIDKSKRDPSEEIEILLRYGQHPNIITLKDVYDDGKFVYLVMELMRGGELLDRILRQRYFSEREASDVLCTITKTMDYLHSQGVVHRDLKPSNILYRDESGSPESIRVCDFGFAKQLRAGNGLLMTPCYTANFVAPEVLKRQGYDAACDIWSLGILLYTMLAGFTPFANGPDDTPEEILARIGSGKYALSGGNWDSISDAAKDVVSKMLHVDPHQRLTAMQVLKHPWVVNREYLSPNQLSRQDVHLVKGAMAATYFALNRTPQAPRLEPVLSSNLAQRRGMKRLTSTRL
Sequence of UniProt O75676 (whole entry, looked up): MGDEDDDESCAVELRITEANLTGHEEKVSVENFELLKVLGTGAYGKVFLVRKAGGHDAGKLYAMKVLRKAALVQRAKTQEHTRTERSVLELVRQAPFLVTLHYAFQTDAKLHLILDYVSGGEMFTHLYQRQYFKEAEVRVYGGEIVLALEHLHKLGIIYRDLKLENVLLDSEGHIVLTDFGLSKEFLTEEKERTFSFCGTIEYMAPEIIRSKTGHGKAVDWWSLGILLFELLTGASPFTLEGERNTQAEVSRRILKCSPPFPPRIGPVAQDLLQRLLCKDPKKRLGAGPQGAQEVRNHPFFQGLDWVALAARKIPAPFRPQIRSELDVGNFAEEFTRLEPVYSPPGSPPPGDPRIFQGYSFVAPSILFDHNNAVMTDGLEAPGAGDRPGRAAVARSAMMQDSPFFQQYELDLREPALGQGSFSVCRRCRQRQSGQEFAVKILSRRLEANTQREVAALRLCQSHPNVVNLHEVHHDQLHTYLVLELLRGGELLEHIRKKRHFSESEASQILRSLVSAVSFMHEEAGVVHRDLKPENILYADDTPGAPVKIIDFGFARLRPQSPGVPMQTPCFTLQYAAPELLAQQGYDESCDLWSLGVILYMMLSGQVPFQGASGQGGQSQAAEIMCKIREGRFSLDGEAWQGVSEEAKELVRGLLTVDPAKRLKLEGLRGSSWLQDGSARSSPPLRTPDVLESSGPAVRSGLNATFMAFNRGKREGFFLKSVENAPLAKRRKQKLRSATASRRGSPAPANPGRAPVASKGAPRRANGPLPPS
Sequence of UniProt O14920 (whole entry, looked up): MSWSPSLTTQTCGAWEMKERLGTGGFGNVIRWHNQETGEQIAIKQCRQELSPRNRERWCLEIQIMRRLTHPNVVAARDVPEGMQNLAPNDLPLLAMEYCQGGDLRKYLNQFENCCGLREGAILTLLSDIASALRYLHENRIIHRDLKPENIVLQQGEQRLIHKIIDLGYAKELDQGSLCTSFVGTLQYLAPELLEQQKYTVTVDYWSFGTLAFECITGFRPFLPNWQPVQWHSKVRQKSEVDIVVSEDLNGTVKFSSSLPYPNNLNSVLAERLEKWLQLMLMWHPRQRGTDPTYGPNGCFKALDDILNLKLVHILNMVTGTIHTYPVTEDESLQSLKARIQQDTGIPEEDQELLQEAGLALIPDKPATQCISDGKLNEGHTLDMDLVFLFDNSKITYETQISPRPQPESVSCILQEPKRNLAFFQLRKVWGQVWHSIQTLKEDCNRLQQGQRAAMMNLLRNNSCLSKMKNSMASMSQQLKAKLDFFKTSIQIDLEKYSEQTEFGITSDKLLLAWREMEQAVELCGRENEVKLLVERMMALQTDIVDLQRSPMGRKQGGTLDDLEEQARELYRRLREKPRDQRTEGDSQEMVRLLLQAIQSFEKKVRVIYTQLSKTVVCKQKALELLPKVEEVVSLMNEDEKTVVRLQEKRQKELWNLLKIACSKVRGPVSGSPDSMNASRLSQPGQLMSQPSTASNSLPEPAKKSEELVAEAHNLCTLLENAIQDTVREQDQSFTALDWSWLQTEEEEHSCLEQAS
Sequence of UniProt Q96GD4 (whole entry, looked up): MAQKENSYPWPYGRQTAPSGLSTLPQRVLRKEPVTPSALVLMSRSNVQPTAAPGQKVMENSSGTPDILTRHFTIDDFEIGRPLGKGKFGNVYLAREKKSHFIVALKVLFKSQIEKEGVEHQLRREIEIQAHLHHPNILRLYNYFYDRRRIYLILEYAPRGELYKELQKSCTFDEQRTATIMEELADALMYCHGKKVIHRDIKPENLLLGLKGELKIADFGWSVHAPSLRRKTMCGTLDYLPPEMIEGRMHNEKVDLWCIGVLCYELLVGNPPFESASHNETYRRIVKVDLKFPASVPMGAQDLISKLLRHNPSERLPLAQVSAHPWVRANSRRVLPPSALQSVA

Study 1
SMILES: C[C@H](c1ccnc(Nc2nc3ccc(-c4cc(N(C)C)ncn4)cc3[nH]2)c1)N1CCN(C(=O)CC(F)(F)F)CC1
Method: competition with immobilised ligand
Concentration: 0.1 µM
| target | effect on | remaining binding |
| --- | --- | --- |
| CAMK2A (Homo sapiens, UniProt Q9UQM7) | cell-free assay | 99% |
| SRC (Homo sapiens, UniProt P12931) | cell-free assay | 100% |
| Ribosomal protein S6 kinase alpha-2, C-terminal kinase domain (RPS6KA2, Homo sapiens, UniProt Q15349) | cell-free assay | 89% |
| RET (Homo sapiens, UniProt P07949, V804M) | cell-free assay | 76% |
| OXSR1 (Homo sapiens, UniProt O95747) | cell-free assay | 100% |
| Aurora kinase B (AURKB, Homo sapiens, UniProt Q96GD4) | cell-free assay | 100% |
| TXK (Homo sapiens, UniProt P42681) | binding | 96% |
| Ribosomal protein S6 kinase alpha-4, C-terminal kinase domain (RPS6KA4, Homo sapiens, UniProt O75676) | cell-free assay | 94% |
| TNK2 (Homo sapiens, UniProt Q07912) | cell-free assay | 100% |
| IKBKB (Homo sapiens, UniProt O14920) | cell-free assay | 99% |
| DDR1 (Homo sapiens, UniProt Q08345) | cell-free assay | 100% |
| EIF2AK1 (Homo sapiens, UniProt Q9BQI3) | cell-free assay | 100% |

Study 2
Target: Serine/threonine-protein kinase 26 (STK26, Homo sapiens, UniProt Q9P289)
Sequence of UniProt Q9P289 (whole entry, looked up): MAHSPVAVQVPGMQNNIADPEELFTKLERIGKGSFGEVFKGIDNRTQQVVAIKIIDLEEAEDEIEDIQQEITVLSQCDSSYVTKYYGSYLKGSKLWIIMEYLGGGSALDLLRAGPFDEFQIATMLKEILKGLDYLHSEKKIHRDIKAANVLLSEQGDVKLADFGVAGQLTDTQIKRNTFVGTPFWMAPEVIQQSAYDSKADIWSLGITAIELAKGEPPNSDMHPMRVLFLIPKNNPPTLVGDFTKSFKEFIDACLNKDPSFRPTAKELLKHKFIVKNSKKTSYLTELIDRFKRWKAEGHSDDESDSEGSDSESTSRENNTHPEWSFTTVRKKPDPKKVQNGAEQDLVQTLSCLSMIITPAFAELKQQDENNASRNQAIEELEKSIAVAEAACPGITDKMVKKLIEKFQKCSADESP
Effect on: enzyme activity
Action: inhibitor
Concentration: 0.5 µM
Relative to: control
| Compound | remaining activity [%] |
| --- | --- |
| Cc1ccc(NC2=CC(=O)c3sc(C)nc3C2=O)cc1 | 86.6 |
| CC[n+]1c(/C=C/N(C)c2ccccc2)n(-c2ccccc2)c2ccc(-c3nc4ccccc4s3)cc21 | 93.7 |
| CC(C)(C)n1nc(Cc2cccc3ccccc23)c2c(N)ncnc21 | 80.7 |
| N#CC(=C(N)Sc1ccc(N)cc1)c1ccccc1C(F)(F)F | 97.2 |
| CCc1[nH]c(-c2ccc(OC)cc2)nc1-c1ccncc1 | 106 |
| Nc1nccc(-c2c(-c3ccc(F)cc3)ncn2C2CCNCC2)n1 | 98.4 |
| CC#CC(=O)Nc1cc2c(Nc3ccc(F)c(Cl)c3)ncnc2cn1 | 103 |
| Nc1ncnc2c1cnn2-c1ccccc1 | 82.2 |
| O=S(=O)(NCCNC/C=C/c1ccc(Br)cc1)c1cccc2cnccc12 | 94.8 |
| CCCC(=O)Oc1ccc2[nH]c(C(=O)c3cc4ccccc4[nH]3)cc2c1 | 94.8 |
| COc1cc(Nc2c(C#N)cnc3cc(OCCCN4CCN(C)CC4)c(OC)cc23)c(Cl)cc1Cl | 5.9 |

Study 3
Target: Calcium/calmodulin-dependent protein kinase type II subunit alpha (CAMK2A, Homo sapiens, UniProt Q9UQM7)
Effect on: enzyme activity
Action: inhibitor
Concentration: 10 µM
| Compound | inhibition |
| --- | --- |
| CCOc1ccccc1OCCN[C@H](C)Cc1ccc(OC)c(S(N)(=O)=O)c1 | -4% |
| CC(C)(O)C(=O)O | -26% |
| O=c1cc(-c2ccc(O)c(O)c2)oc2c([C@@H]3O[C@H](CO)[C@@H](O)[C@H](O)[C@H]3O)c(O)cc(O)c12 | -17% |
| CCCCCc1cc(=O)c2ccccc2n1C | -33% |
| O=C(O)CCCC(=O)O | 9% |
| CC(C)=C1CC[C@@H](C)CC1=O | -3% |
| C[C@@H]1NC(=O)N[C@@H]1CCCCCC(=O)O | -6% |
| CC(C)(CC(=O)O)C(=O)O | 7% |

Study 4
Host: mouse
Medium: microsomes or S9
Concentration: 2 µM
Time: 0.5 h
| SMILES | remaining compound [%] |
| --- | --- |
| CSc1ncc(Br)c(OC(C)C)n1 | 44 |
| CC(C)N(c1cnn(C)c1)S(=O)(=O)c1cn(C(C)C)cn1 | 77.3 |
| CC1(C)CC(NC(=O)CCc2nc3ncc(Br)cc3[nH]2)CC(C)(C)N1 | 70.7 |
| CCNC(=O)C(C)N(c1ccccc1)S(C)(=O)=O (stereo not shown) | 79.4 |
| O=C(c1ccccc1)N1CC(c2nc(-c3cccnc3)no2)C2(CCOCC2)C1 (stereo not shown) | 19.7 |
| Fc1cnc(NC2CCN(C3CCOC3)CC2)nc1 (stereo not shown) | 100 |
| COc1ccc(-c2cc(=O)c3c(O)c(OC)c(OC)c(OC)c3o2)cc1OC | 6.14 |
| CCn1nccc1-c1cc(C(=O)O)c2ccc(C)c(C)c2n1 | 71.6 |
| CC(C)(C)NC(=O)CN1CCN(c2cc(C(=O)O)c3cc(NS(=O)(=O)c4ccc(F)cc4)ccc3n2)CC1 | 81.5 |
| c1ccc(C(c2ccccc2)c2n[nH]c3c2CNCC3)cc1 | 74.1 |
| O=C(c1ccc(=O)[nH]c1)N1CCN(c2ncc(Cl)cn2)CC1 | 91.4 |
| C=CCOc1ccccc1C1CC(O)=Nc2c1c(C)nn2-c1ccc(O)nn1 (stereo not shown) | 22.1 |

For quick reference, copied from above (study 1):
| target | effect on | remaining binding |
| --- | --- | --- |
| Aurora kinase B (AURKB, Homo sapiens, UniProt Q96GD4) | cell-free assay | 100% |
| TXK (Homo sapiens, UniProt P42681) | binding | 96% |
| Ribosomal protein S6 kinase alpha-4, C-terminal kinase domain (RPS6KA4, Homo sapiens, UniProt O75676) | cell-free assay | 94% |
| TNK2 (Homo sapiens, UniProt Q07912) | cell-free assay | 100% |
| IKBKB (Homo sapiens, UniProt O14920) | cell-free assay | 99% |
| DDR1 (Homo sapiens, UniProt Q08345) | cell-free assay | 100% |
| EIF2AK1 (Homo sapiens, UniProt Q9BQI3) | cell-free assay | 100% |
